Results pooled from the literature.
Each numbered part is a random draw from the data of one study; scales do not carry over between parts. Changes are numbered by the printed parent chain.

Sample 1 — Change: E147D; method: DHFR PCA, deep sequencing; matrix: yeast; reference: wild-type fitted maximum; reading: higher = stronger binding; endpoint: relative binding score
Target: ABI1, truncated, D143A, DHFR fusion (Arabidopsis thaliana)
Setting: methotrexate growth selection, single substitutions
Parent: PYL1, truncated, DHFR fusion (Arabidopsis thaliana); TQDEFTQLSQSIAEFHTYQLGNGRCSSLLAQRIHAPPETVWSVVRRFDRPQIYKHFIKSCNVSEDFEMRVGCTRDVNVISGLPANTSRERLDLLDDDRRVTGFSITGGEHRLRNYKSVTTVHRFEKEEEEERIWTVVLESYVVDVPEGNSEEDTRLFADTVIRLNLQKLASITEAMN
together with: (+)-ABA 58 µM: 89.7%
together with: (+)-ABA 200 µM: 101%
together with: (+)-ABA 0.032 µM: 30.2%
together with: (+)-ABA 0.11 µM: 37.5%
together with: (+)-ABA 17 µM: 85.4%
together with: (+)-ABA 0.39 µM: 55.3%

Sample 2 — method: protein-binding microarray; molecule type: double-stranded DNA, one strand shown; matrix: in vitro; concentration: not given; reading: higher = stronger binding; endpoint: E-score
Target: Cyclic AMP-dependent transcription factor ATF-1 (ATF1, Homo sapiens, UniProt P18846, residues 1-271, full length assumed)
Setting: k-mer, scored over probes, only values ≥0.25
Target sequence (chain): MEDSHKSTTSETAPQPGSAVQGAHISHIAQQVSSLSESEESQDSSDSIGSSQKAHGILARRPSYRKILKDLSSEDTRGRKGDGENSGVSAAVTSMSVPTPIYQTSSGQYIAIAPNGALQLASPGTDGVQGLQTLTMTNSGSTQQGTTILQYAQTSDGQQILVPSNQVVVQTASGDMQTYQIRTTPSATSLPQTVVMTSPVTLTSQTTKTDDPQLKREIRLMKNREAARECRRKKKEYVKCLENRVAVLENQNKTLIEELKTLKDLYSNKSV
AACGTAA: 0.361
AATTCGT: 0.265
AAAACGT: 0.253
CGTCACG: 0.487
TGACGCA: 0.473
GACGTGA: 0.382
ACGTCAG: 0.476
CGTATTC: 0.31

Single results of other studies
ADRB1: Beta-1 adrenergic receptor (ADRB1, Homo sapiens, UniProt P08588)
Sequence of UniProt P08588 (whole entry, looked up): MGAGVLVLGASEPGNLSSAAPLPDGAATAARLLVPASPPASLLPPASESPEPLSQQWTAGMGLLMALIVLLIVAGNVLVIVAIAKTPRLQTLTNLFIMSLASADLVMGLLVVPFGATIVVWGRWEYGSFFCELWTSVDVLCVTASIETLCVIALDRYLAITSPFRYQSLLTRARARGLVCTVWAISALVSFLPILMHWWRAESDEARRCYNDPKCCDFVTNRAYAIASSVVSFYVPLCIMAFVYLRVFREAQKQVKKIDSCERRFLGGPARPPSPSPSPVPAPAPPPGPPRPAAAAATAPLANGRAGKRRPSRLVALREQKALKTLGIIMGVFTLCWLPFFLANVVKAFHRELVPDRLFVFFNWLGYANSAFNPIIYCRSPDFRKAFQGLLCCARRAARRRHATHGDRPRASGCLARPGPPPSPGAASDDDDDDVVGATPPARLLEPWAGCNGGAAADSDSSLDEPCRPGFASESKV
Cc1cc(=O)oc2cc(NC(=O)[C@H](CCCCN)NC(=O)[C@H](CC3CCCCC3)NC(=O)OCC3c4ccccc4-c4ccccc43)ccc12 — IC50 (ADRB1; antagonist): ≥ 100 µM
N#CC1(c2ccccn2)CCN(Cc2cc(C(=O)N3CCCC3)c(=O)n3ccccc23)CC1 — cells with bright nuclei (MRC9 fibroblasts; Hoechst high-content imaging; 10-fold recommended concentration, 24 h): 62%
CCOC(=O)N1CCN(Cc2cccc(OCC(O)CN3CCOCC3)c2)CC1 (centres unmarked) — IC50 (ADRB1; antagonist): ≥ 100 µM

Some of these lines once more (sample 2):
TGACGCA: 0.473
GACGTGA: 0.382
